Measurements of several laboratories.
Compare with care: the assays were run in different laboratories. Numbers after ± are the reported error.

Substance	tested on	test	test system	setting	scale	endpoint	result
adrenomedullin	–	RP-HPLC	HALO C18 column	25 µM, formic acid/acetonitrile, 25 min gradient	–	retention time	5.75 min
insulin degludec	–	–	human	subcutaneous, 0.4 IU/kg, 3 FC level, single dose, reference formulation	–	AUC0−12	111 ± 19 ng·h/mL
pegcetacoplan	–	measured: blood and lymphatic disorders	patients with PNH	dose not given, phase Ib trial	–	number of TEAEs	1
11-deoxycorticosterone	human CYP11B2	stopped-flow kinetic modelling	–	3-state conformational selection model, together with: no adrenodoxin	–	Kd	3.57 µM
FGA (Homo sapiens, UniProt P02671)	SLC27A1 (Homo sapiens, UniProt Q6PCB7)	cross-linking MS	–	together with: DSSO	–	cross-linked residues	K243 to K49
caspofungin	–	–	adult ICU patients, mITT, serum	dose not given, Baseline	–	alkaline phosphatase	148 U/L
MLHGVAWQ	HUVEC	ICP-OES, measured: rhenium	peptide	24 h	baseline: loaded	cellular uptake	1.66%
Neuropeptide Y	–	RP-HPLC	HALO Phenyl-hexyl column	25 µM, formic acid/methanol, 10 min gradient	–	retention time	8.9 min
durvalumab	–	–	human, plasma	intravenous, 1500 mg, cycle 4 day 1, geometric mean, together with: adavosertib 150 mg twice daily	–	Cmax	444 µg/mL
insulin	–	LC-MS/MS	spiked human serum	one freeze-thaw cycle	–	concentration	0.00973 µg/mL
colistin	Pseudomonas aeruginosa	broth microdilution	clinical isolate RKI-No_480/15	–	–	MIC	1 µg/mL
EHWSYGLRPG	HUVEC	ICP-OES, measured: rhenium	peptide	24 h	baseline: loaded	cellular uptake	1.61%
insulin icodec	–	–	human moderate hepatic impairment, serum	subcutaneous, 1.5 U/kg single dose	baseline: normal hepatic function	AUC(0-inf) increase	15%

A few entries again:
Substance	tested on	test	test system	setting	scale	endpoint	result
FGA (Homo sapiens, UniProt P02671)	SLC27A1 (Homo sapiens, UniProt Q6PCB7)	cross-linking MS	–	together with: DSSO	–	cross-linked residues	K243 to K49
insulin icodec	–	–	human moderate hepatic impairment, serum	subcutaneous, 1.5 U/kg single dose	baseline: normal hepatic function	AUC(0-inf) increase	15%
